Assay results of several laboratories.
Compare with care: the assays were run in different laboratories. “And” joins repeats or separate records; there may be more than shown. ± marks the error that the study gave.

O=C(O)c1ccc2c(c1)nc(NCCc1cccc(Cl)c1)c1ccncc12
number of kinases inhibited (DYRK and HIPK kinases; enzyme activity, inhibitor, eight-kinase enzymatic panel; 1 µM, percent of control below 10): 1

Fc1ccccc1Nc1nc(NCC2CCCO2)c2ccccc2n1 (centres unmarked)
inhibition (Renilla luciferase reporter mRNA; in vitro translation, inhibitor; Trypanosoma cruzi translation extract; 20 µM): 51.4%

O=C(O)c1ccc2c(c1)nc(Nc1cccc(F)c1)c1ccncc12
number of kinases inhibited (DYRK and HIPK kinases; enzyme activity, inhibitor, eight-kinase enzymatic panel; 1 µM, percent of control below 10): 5

COc1ccc(F)cc1C(=O)NCc1ccc(-c2nn([C@@H](C)C(F)(F)F)c(N)c2C(N)=O)cc1
IC50 (PLCγ2 human; PLCγ2 phosphorylation, measured: PLCγ2 Y1217; Rec1): 51.7 nM

C=CC1=C(C)c2cc3[nH]c(cc4nc(cc5[nH]c(cc1n2)c(C)c5CCC(=O)O)C(CCC(=O)O)=C4C)c(C)c3C=C
inhibition (thioredoxin reductase (human); cellular enzyme activity, insulin end-point assay in lysates; A549; 10 µM, 24 h): ~90%

COc1cc(O)c2c(c1)C(=O)c1cc(C)cc(O)c1C2=O
viability (HK-2 co-cultured with HepaRG; MTT; 16.67 µM, 48 h; relative to: untreated control): 105 ± 9.11%

COc1cc(/C=C/C(=O)CC(=O)/C=C/c2ccc(O)c(OC)c2)ccc1O
inhibition (17β-HSD (human); androstenedione formation; LS180; 100 µM, with: testosterone 50 µM): ~50%

O=C(NN=Cc1ccc(C[n+]2ccccc2)cc1)c1ccc2ccc3ccc(C(=O)NN=Cc4ccc(C[n+]5ccccc5)cc4)nc3c2n1.[Br-].[Br-]
ΔTm (MYC parallel G4 DNA; FRET melting; 1 µM, DNA 0.2 µM): 21.9 ± 0.1 °C

O=C(O)c1ccc2c(c1)nc(Nc1ccc(F)c(Cl)c1)c1ccncc12
number of kinases inhibited (DYRK and HIPK kinases; enzyme activity, inhibitor, eight-kinase enzymatic panel; 1 µM, percent of control below 10): 6

C#Cc1cc(-c2cc(Nc3nc(N[C@@H](C)c4ccc(F)cn4)ncc3Cl)n[nH]2)ccc1C=O
inhibition (FLT3 ITD, human; kinase activity, inhibitor; 0.2 µM): 99% and 98.3%

O=C(O)Cc1cccc2ccccc12
time to interaction (TMK1 with ABL1/ABL2 (Arabidopsis thaliana); co-immunoprecipitation; Arabidopsis thaliana, TMK1-GFP seedlings; 5 µM): ≤ 1 min

C=CC(=O)N1CCC(COCC(=O)N2CCN(c3nc(-c4cnc(N)nc4C(F)F)nc(N4CCOC[C@@H]4C)n3)CC2)CC1
remaining binding (FLT3 ITD D835V; KINOMEscan; 1 µM): 100%

C[N+](C)(C)CC(=O)O
ΔTm (SAR11_0797 Candidatus Pelagibacter ubique; differential scanning fluorimetry; concentration not given, unit not given; higher = stronger binding): 4.27

Nc1ncc2c(n1)-c1c([nH]c3ccc(C#CC4CC4)cc13)CCCC2
remaining binding (FLT3 ITD D835V; scanMAX; 1 µM; relative to: control): 75%

CN(CCCC(F)(F)F)c1nccc(-c2cnn3ncccc23)n1
remaining binding (FLT3 ITD human; KINOMEscan binding; 1000 nM; relative to: control): 100%

Cn1cc(-c2ccc(-c3cncc(Cl)c3N3CCC4(CCNC4=O)CC3)cc2)cn1
log2 fold change (COLO 205; gene expression, microarray, measured: CLHC1 mRNA; concentration not given, 2 h; relative to: untreated cells): 2.04

CCNC(=O)/C=C/c1cccc(Br)c1
L-leucine uptake (endogenous leucine transporters hamster; inhibitor, L-[14C]leucine uptake; CHO-BC cells; 1 µM, sodium-free): 27.9 nmol/6 min/mg protein and 26.7 nmol/6 min/mg protein and 28.8 nmol/6 min/mg protein

CC[C@H](C)[C@H](NC(=O)[C@H](CC(=O)O)NC(=O)[C@H](CCC(=O)O)NC(=O)[C@@H](N)CC(N)=O)C(=O)N[C@@H](CC(=O)O)C(=O)N[C@@H](CCC(N)=O)C(=O)N[C@@H](CCSC)C(=O)N[C@@H](Cc1ccccc1)C(=O)N[C@@H](CO)C(=O)N[C@H](C(=O)N[C@@H](CC(C)C)C(=O)N[C@@H](CC(C)C)C(=O)NCC(=O)N[C@@H](CCC(=O)O)C(=O)N[C@@]1(C)CCCC=CCCC[C@@](C)(C(=O)N[C@@H](CCC(N)=O)C(=O)N[C@@H](CO)C(=O)O)NC(=O)[C@H](CC(C)C)NC(=O)[C@H](CC(C)C)NC(=O)[C@H](CC(=O)O)NC1=O)[C@@H](C)O
integrin αIIbβ3 activation (talin head domain; inhibitor, PAC-1 flow cytometry; CHO-A5 expressing GFP-talin head domain; 10 µM, 30 min, 37 °C): inhibited

COc1ccnn2ncc(-c3ccnc(N(C)C)n3)c12
remaining binding (FLT3 ITD human; KINOMEscan binding; 1000 nM; relative to: control): 100%

O=C(O)c1ccc2c(c1)nc(Nc1cccc(F)c1)c1ncncc12
number of kinases inhibited (DYRK and HIPK kinases; enzyme activity, inhibitor, eight-kinase enzymatic panel; 1 µM, percent of control below 10): 5

c1coc(-c2n[nH]cc2-c2ccnc3ccccc23)c1
log2 fold change (orf19.4518 Candida albicans; kinase binding, MIB/MS competition; Candida albicans lysate; 10 µM; relative to: DMSO): -0.1

COc1cccc(Nc2nc(NCC3CCCO3)c3ccccc3n2)c1.Cl (centres unmarked)
inhibition (Renilla luciferase reporter mRNA; in vitro translation, inhibitor; Trypanosoma cruzi translation extract; 5 µM): 16%

O=C(O)/C=C/c1ccc(Cn2ccnc2)cc1
inhibition (THP-1; pyroptotic LDH release; 2 µM, 40 min, with: LPS then nigericin): -12.6%

Cl.Fc1ccc(Nc2nc(NCC3CCCO3)c3ccccc3n2)cc1 (centres unmarked)
inhibition (Renilla luciferase reporter mRNA; in vitro translation, inhibitor; Trypanosoma cruzi translation extract; 10 µM): 2.7%

N[C@@H]1CCN(c2nccc(-c3cnn4ncccc34)n2)C1
remaining binding (FLT3 ITD human; KINOMEscan binding; 1000 nM; relative to: control): 98%

Cl.OCCNc1nc(Nc2ccccc2)nc2ccccc12
inhibition (Renilla luciferase reporter mRNA; in vitro translation, inhibitor; Trypanosoma cruzi translation extract; 5 µM): 21.8%

O=C(O)c1ccc2c(c1)nc(Nc1ccc3ccccc3c1)c1ccncc12
number of kinases inhibited (DYRK and HIPK kinases; enzyme activity, inhibitor, eight-kinase enzymatic panel; 1 µM, percent of control below 10): 5

CN1C[C@H](COc2nccc3c(NCc4ccco4)cc(Cl)nc23)OC1=O
enzyme activity (alpha-galactosidase A (GLA) human; activator; Fabry disease iPSC-derived cardiomyocytes; 10 µM; relative to: wild type): 17.2%

N#Cc1cccc(Nc2nc3cc(C(=O)O)ccc3c3cnccc23)c1
number of kinases inhibited (DYRK and HIPK kinases; enzyme activity, inhibitor, eight-kinase enzymatic panel; 1 µM, percent of control below 10): 4

Oc1ccccc1-c1n[nH]cc1-c1ccnc2ccccc12
log2 fold change (orf19.4518 Candida albicans; kinase binding, MIB/MS competition; Candida albicans lysate; 1 µM; relative to: DMSO): 0.21

Cc1cc2c(cc1N1C(=O)c3cccc4c(Cl)ccc(c34)C1=O)n(C)c(=O)n2C
delta Tm (SMARCA2; 10 µM): 0.5 K

COc1cc2c(c(O)c1OC)C(=O)c1c(cc(C)c(O[C@@H]3O[C@H](CO)[C@@H](O)[C@H](O)[C@H]3O)c1OC)C2=O
cell viability (HK-2 co-cultured with HepaRG; MTT; 66.67 µM, 24 h; relative to: untreated control): 81.8 ± 11.1%

O=C(O)c1ccc2c(c1)nc(NCCc1cccc(Cl)c1)c1ncncc12
number of kinases inhibited (DYRK and HIPK kinases; enzyme activity, inhibitor, eight-kinase enzymatic panel; 1 µM, percent of control below 10): 0

C[C@H](CCC(C)(C)O)[C@H]1CC[C@H]2[C@@H]3CC=C4C[C@@](C)(O)CC[C@]4(C)[C@H]3CC[C@]12C
Emax (GluN1/GluN2C NMDA receptor (human); glutamate-evoked current, two-electrode voltage clamp; 10 µM, holding potential -80 mV, with: glutamate and glycine; relative to: glutamate response without compound): 131%

Cc1ccc(C(=O)NCc2ccsc2)cc1C#Cc1cn(C(C)C)c2ncnc(N)c12
remaining activity (casein kinase 1 (yeast); enzyme activity; 1 µM, with: ATP at Km): 50%

Nc1ccc(/N=N/c2ccccc2)c(N)n1
inhibition (THP-1; pyroptotic LDH release; 2 µM, 40 min, with: LPS then nigericin): -4.13%

Cc1ccc(C(=O)Nc2ccc3ccccc3c2)o1
inhibition (human Kv7.1; ion current, whole-cell patch-clamp; 10 µM): 7.91%

CC(Nc1nc(N2CCCC2)nc2ccccc12)c1ccccc1 (centres unmarked)
cells with nuclear reporter (importin α/β1; cMyc nuclear import, high content imaging; HeLa Kyoto reporter; 0.05 µM, 2 h): 86.9%

C[n+]1cccc2cc(C=NNC(=O)c3ccc4ccc5ccc(C(=O)NN=Cc6ccc7c(ccc[n+]7C)c6)nc5c4n3)ccc21.[I-].[I-]
ΔTm (MYC parallel G4 DNA; FRET melting; 1 µM, DNA 0.2 µM): 20.8 ± 0.4 °C

CN(C)c1nccc(-c2cnn3ncccc23)n1
remaining binding (FLT3 ITD human; KINOMEscan binding; 1000 nM; relative to: control): 85%

O=C(O)c1ccc2c(c1)nc(Nc1ccc(F)c(Cl)c1)c1ncncc12
number of kinases inhibited (DYRK and HIPK kinases; enzyme activity, inhibitor, eight-kinase enzymatic panel; 1 µM, percent of control below 10): 5

Excerpt of the above:
CC(Nc1nc(N2CCCC2)nc2ccccc12)c1ccccc1 (centres unmarked)
cells with nuclear reporter (importin α/β1; cMyc nuclear import, high content imaging; HeLa Kyoto reporter; 0.05 µM, 2 h): 86.9%

O=C(O)c1ccc2c(c1)nc(Nc1cccc(F)c1)c1ccncc12
number of kinases inhibited (DYRK and HIPK kinases; enzyme activity, inhibitor, eight-kinase enzymatic panel; 1 µM, percent of control below 10): 5

CN(C)c1nccc(-c2cnn3ncccc23)n1
remaining binding (FLT3 ITD human; KINOMEscan binding; 1000 nM; relative to: control): 85%

CCNC(=O)/C=C/c1cccc(Br)c1
L-leucine uptake (endogenous leucine transporters hamster; inhibitor, L-[14C]leucine uptake; CHO-BC cells; 1 µM, sodium-free): 27.9 nmol/6 min/mg protein and 26.7 nmol/6 min/mg protein and 28.8 nmol/6 min/mg protein

COc1cc2c(c(O)c1OC)C(=O)c1c(cc(C)c(O[C@@H]3O[C@H](CO)[C@@H](O)[C@H](O)[C@H]3O)c1OC)C2=O
cell viability (HK-2 co-cultured with HepaRG; MTT; 66.67 µM, 24 h; relative to: untreated control): 81.8 ± 11.1%

Oc1ccccc1-c1n[nH]cc1-c1ccnc2ccccc12
log2 fold change (orf19.4518 Candida albicans; kinase binding, MIB/MS competition; Candida albicans lysate; 1 µM; relative to: DMSO): 0.21
